Measurements from different studies.
A part holds a random share of what one study measured. Positions count from the first letter of the parent shown.

Study 1 — method: DHFR PCA, deep sequencing; matrix: yeast; with: (+)-ABA 0.11 µM; baseline: wild-type fitted maximum; direction: higher = stronger binding
Target: ABI1, truncated, D143A, DHFR fusion (Arabidopsis thaliana)
Notes: methotrexate growth selection, single substitutions
Starting sequence: PYL1, truncated, DHFR fusion (Arabidopsis thaliana); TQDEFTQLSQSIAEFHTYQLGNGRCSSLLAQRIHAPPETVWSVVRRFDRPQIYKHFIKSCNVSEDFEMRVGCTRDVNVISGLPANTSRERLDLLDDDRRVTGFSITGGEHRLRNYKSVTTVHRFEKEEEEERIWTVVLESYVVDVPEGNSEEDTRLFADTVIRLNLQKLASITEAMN
| Change | relative binding score |
| --- | --- |
| G71M | 0.21% |
| R90C | 6.29% |
| E129W | 7.03% |
| C60A | 8.6% |
| S26I | -0.218% |
| M68V | 15.8% |
| T86R | 15.2% |
| N149F | 2% |

Study 2 — method: RNA Bind-n-Seq; molecule type: RNA; matrix: in vitro; concentration: not given; baseline: input RNA pool; direction: higher = stronger binding
Target: RING finger protein unkempt homolog, zinc fingers 1-6, GST-SBP tag (UNK, Homo sapiens, UniProt Q9C0B0, residues 30-357)
Notes: RNA with constant flanks, human and mouse sites, ends assumed
All sequences stand within: GGGAGUUCUACAGUCCGACGAUC … CAACAGAGGAUUGAGCAUCA
Target sequence (chain): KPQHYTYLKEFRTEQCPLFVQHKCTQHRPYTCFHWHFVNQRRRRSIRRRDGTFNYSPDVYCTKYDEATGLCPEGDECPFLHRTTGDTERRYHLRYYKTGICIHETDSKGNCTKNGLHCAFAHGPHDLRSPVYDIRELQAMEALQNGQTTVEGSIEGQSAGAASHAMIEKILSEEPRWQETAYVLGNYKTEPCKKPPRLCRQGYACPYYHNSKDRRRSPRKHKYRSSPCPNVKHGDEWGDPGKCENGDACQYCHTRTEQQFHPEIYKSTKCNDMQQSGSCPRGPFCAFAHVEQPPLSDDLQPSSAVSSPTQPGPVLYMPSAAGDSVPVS
| Strand | bound/input enrichment [ratio] |
| --- | --- |
| AAUAAUCUCGCCCCAGUGGGUGCUUGUGAUGAUUUUGAGAGAGCUCUCCAAGGACCACUGUUUGCUUAUAUCCAGGAGUUUCGGUUCCUGCCCCCACCUCUCUAUUCAGAGAUUGAUCCA | 0.158 |
| UACUUGUGCCCUGGCAGCCUUAUUGCAGGCAGUGCCGUCCUGCUUUAUGCUUUUGUGGAGACCCGGGACAACUACUUCUACAUUCACAGCAUUUGGCAUAUGCUCAUUGCGGGCAGUGUG | 0.14 |
| UUUUUUUUUUUUUGGAUACAUCUUAACAUAUAAAAAUUAAGUUUUUGCCAUUCAACAUAGUAGUAUCAUAUGGCCUGGAUAUAUUUGAAUGUGUAUGAAGUAAAGUUGCUUGAGAACAGG | 2.24 |
| GACGCCUCAGAUUUUGAGCAUAUCACUGCAGACACCCCGUCUCGGCCCCUGUCAGCCACUAGCAACCCUUUUAAGAGCUCCAAGGGCUCCCCUACUGGGAGCUCCCCAAACAAUGCAAGU | 0.699 |
| UACUUGUUCAGUCCAUAAACUAUGAUAUAGCCUCUAUACAUGGUAAGAAAAUUUGAAAAAUUAAAGAUGGUUGCACAGUAUACUUUUAUAAUCCAGCAUGUAACACCACAUGACAAUUUG | 0.249 |
| AGUAUCUACCUGCUGUCACGGCACUGUCCCUGUCAACUUUGUGUAGGGACGUGUGAGGGAUAUAGGGUCCCUCUGACACCUGCACACUGUCCAGGUGGUGAGCCAUCUGCUUCAGCACGU | 0.0503 |
| AUAAUAUUAACUUUUGCUGAGGUUUAUGAGAUUUUCUCACCCCACAUCGCUCCCCUUUUUUUAAAAAGGACUGUUUUGCUAGUGUGAUAAUGAAUAGGUAAGAUAUGAGAUAAUUGCAAC | 10.8 |
| CGAAUGCCACUUUUAAGCCUGCAUCUAGAUGUAAAAGAAAAUGGUGAAGUAAAACCUUAUUCUAUUGAAAUGAGUAGAGAGGAGCUGCAGAAUCUAAUACAGUCCUUGGAAGCAGCGAAU | 0.281 |

Study 3 — target: CCND1, cyclin fold, Cln2 fusion (human); method: yeast growth competition, sequencing; matrix: yeast; notes: weak parent motif; baseline: not given; direction: higher = stronger binding
Starting sequence: viral docking peptide; CKVKRKLFGSENI; partner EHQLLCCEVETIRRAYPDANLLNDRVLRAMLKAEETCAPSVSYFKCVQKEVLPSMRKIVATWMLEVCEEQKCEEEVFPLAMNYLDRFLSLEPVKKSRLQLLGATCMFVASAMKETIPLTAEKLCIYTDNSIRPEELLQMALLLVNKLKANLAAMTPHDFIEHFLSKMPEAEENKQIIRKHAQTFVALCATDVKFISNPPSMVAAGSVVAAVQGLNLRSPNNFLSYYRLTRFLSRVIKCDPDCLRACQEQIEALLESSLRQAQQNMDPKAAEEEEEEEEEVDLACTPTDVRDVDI
| Change | normalised enrichment score |
| --- | --- |
| R5K F8L | 0.0671 |
| V3A | 0.527 |
| N12A | 0.363 |
| L7A | 0.0101 |
| I13A | 0.825 |
| E11A | 0.658 |
| K6A | 0.536 |

Single results of other studies
Starting sequence: PafA, mature enzyme, eGFP fusion (Elizabethkingia meningoseptica, UniProt Q9KJX5); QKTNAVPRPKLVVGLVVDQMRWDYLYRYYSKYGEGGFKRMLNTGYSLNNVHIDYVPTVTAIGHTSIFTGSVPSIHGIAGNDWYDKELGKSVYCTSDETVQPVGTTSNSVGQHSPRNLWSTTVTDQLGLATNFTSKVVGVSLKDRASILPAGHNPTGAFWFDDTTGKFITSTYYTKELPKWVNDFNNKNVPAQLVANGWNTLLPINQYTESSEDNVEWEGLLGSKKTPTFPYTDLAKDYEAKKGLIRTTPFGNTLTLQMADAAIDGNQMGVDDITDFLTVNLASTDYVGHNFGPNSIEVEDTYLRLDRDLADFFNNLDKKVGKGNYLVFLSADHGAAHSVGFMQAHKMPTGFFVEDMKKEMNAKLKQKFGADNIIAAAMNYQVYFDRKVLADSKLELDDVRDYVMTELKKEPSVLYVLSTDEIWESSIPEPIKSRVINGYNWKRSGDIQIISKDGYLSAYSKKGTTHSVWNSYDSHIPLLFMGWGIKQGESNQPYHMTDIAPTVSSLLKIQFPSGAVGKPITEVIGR
| Change | target | assay | system | setting | how to read | quantity | value |
| --- | --- | --- | --- | --- | --- | --- | --- |
| K508G | vanadate, free oxyanion | microfluidic competitive inhibition | in vitro, cell-free expressed | not given, derived from inhibition constants, unchanged parent 676 nM | lower = stronger binding | oxyanion analog dissociation constant | 816 nM |

For quick reference, copied from above (study 1):
| Change | relative binding score |
| --- | --- |
| C60A | 8.6% |
| S26I | -0.218% |
| M68V | 15.8% |
